Assay results of several laboratories.
Parts stem from different laboratories: compare values within a part only. Values joined by “and” are separate records of one study, mostly repeats; a detail may differ.
Sequence of UniProt P42336 (whole entry, unmodified, looked up): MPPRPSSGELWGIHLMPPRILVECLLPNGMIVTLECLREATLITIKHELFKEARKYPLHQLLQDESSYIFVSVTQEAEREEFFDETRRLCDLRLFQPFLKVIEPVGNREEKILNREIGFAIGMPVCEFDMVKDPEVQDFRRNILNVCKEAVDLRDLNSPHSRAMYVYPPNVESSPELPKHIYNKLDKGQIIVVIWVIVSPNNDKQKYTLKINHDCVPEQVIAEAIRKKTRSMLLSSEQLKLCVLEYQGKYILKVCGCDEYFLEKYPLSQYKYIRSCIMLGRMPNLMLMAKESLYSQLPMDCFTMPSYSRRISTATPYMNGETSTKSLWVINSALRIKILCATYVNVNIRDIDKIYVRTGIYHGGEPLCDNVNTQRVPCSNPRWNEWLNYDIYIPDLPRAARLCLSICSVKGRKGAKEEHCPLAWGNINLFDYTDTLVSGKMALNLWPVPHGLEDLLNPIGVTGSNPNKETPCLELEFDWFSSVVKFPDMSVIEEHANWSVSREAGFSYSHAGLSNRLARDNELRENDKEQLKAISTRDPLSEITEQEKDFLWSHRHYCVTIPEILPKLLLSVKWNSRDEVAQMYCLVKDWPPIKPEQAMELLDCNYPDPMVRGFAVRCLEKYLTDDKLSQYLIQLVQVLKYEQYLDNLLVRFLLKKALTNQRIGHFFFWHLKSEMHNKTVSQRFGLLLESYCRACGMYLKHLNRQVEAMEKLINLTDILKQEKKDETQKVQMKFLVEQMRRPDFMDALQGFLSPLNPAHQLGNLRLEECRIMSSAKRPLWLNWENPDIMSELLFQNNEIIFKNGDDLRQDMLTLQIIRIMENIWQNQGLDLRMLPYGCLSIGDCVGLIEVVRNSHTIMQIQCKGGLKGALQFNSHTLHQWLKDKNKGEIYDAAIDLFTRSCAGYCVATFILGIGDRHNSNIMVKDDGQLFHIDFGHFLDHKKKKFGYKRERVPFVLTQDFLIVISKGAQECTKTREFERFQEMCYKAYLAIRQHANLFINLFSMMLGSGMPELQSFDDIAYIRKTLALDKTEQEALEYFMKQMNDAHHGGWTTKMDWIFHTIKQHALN
Sequence of UniProt P52564 (whole entry, looked up): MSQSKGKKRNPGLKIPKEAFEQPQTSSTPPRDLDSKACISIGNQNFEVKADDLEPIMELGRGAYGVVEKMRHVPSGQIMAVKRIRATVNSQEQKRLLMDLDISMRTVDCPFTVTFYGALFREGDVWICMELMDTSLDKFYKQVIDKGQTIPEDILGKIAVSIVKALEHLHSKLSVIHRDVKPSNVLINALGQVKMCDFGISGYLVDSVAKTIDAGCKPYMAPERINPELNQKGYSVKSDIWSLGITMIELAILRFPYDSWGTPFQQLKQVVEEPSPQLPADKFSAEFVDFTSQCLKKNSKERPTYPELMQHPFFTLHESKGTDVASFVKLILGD
Sequence of UniProt P78368 (whole entry, looked up): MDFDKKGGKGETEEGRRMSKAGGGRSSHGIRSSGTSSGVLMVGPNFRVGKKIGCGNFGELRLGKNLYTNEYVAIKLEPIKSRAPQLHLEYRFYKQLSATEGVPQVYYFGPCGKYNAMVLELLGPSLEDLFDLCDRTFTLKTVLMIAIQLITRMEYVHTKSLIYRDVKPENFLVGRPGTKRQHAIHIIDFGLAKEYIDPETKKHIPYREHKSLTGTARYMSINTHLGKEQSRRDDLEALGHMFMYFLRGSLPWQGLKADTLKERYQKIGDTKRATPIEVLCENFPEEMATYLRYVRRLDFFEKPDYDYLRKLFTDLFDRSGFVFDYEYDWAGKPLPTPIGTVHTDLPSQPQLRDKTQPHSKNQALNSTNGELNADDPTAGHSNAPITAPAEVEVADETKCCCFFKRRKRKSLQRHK
Sequence of UniProt Q9UQ88 (whole entry, looked up): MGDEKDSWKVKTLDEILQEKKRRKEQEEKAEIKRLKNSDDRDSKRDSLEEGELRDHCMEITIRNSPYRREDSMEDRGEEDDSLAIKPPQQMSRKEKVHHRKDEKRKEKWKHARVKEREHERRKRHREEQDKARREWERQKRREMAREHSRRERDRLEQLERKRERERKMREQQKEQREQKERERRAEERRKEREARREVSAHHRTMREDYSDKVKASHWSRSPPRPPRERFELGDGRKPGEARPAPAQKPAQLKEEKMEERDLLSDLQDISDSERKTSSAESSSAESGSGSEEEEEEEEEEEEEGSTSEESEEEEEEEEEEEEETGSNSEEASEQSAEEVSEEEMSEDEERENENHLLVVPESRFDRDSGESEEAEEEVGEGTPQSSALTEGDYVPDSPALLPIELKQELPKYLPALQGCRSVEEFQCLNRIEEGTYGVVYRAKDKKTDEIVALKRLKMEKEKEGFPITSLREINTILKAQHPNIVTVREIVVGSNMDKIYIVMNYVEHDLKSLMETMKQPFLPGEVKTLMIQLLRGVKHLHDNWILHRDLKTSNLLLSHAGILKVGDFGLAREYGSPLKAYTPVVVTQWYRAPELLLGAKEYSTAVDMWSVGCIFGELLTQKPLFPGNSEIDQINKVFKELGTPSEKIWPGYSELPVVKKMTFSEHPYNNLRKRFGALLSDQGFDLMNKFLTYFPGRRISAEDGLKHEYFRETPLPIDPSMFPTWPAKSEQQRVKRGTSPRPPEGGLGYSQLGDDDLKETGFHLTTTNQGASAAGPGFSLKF
Sequence of UniProt P51817 (whole entry, looked up): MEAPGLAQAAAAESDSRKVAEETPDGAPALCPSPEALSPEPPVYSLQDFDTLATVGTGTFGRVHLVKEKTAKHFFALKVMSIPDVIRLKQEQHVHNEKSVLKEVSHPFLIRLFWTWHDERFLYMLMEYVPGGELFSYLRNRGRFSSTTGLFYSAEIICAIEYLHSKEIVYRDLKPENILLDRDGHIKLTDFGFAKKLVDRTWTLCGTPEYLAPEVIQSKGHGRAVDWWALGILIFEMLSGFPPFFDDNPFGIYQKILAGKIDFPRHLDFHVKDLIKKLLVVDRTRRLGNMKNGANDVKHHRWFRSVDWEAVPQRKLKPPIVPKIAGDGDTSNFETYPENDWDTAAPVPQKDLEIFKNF
Sequence of UniProt O15197 (whole entry, looked up): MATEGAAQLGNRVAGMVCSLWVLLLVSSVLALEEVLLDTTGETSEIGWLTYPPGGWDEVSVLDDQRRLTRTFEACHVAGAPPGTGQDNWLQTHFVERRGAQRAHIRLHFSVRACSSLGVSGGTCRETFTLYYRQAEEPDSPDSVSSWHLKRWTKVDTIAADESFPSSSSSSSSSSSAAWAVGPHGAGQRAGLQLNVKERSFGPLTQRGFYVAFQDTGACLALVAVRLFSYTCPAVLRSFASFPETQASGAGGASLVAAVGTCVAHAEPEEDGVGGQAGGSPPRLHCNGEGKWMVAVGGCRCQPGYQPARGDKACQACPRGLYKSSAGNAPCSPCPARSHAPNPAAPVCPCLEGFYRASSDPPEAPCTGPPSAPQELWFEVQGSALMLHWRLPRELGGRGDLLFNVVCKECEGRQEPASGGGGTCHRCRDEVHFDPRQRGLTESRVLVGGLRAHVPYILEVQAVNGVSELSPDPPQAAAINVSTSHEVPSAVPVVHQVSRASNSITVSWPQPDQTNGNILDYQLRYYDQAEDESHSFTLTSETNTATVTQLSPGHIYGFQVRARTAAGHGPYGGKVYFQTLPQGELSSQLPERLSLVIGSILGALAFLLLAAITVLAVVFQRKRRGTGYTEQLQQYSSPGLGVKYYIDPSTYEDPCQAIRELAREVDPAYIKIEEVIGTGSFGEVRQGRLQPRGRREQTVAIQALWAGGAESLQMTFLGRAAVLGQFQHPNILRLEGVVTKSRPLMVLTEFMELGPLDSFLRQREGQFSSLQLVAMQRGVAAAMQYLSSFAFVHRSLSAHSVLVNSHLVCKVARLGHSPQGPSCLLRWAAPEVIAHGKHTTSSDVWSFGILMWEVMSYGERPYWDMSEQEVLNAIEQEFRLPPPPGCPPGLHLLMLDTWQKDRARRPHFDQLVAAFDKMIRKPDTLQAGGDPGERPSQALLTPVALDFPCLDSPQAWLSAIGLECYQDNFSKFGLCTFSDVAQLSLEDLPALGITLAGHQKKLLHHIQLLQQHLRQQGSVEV
Sequence of UniProt P57078 (whole entry, looked up): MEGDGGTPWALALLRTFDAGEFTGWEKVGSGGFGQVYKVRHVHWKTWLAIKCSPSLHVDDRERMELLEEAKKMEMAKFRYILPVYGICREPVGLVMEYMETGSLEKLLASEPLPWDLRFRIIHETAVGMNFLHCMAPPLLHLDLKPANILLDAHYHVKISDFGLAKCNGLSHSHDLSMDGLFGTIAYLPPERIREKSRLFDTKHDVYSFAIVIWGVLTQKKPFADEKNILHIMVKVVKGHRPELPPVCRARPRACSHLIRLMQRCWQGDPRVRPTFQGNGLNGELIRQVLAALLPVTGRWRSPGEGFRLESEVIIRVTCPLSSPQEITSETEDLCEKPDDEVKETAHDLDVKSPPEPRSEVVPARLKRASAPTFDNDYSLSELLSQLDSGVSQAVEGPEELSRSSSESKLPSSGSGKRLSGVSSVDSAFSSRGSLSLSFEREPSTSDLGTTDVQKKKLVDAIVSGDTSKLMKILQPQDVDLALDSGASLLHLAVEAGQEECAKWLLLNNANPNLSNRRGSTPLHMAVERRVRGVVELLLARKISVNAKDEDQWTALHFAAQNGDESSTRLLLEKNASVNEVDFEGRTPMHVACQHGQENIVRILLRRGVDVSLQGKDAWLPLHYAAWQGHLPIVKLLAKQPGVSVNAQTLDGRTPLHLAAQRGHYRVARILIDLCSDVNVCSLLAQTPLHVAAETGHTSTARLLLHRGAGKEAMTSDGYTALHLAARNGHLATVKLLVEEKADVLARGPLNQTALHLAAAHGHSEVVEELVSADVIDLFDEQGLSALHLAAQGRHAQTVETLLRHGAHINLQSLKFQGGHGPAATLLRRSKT

Series 1 — concentration: 1 µM; measurement: remaining binding
Structure (SMILES): Cc1nc(C2CCN(C(=O)c3ccc(OC(F)(F)F)cc3N)CC2)c2ncc(N3CCN(C)CC3)cc2n1
MAP2K6 (Homo sapiens, UniProt P52564); cell-free assay, competition with immobilised ligand: 97%
CSNK1G2 (Homo sapiens, UniProt P78368); cell-free assay, competition with immobilised ligand: 93%
RIPK4 (Homo sapiens, UniProt P57078); cell-free assay, competition with immobilised ligand: 84%
PRKACA (Homo sapiens, UniProt P17612); cell-free assay, competition with immobilised ligand: 100%
PNCK (Homo sapiens, UniProt Q6P2M8); cell-free assay, competition with immobilised ligand: 100%
EGFR (Homo sapiens, UniProt P00533, L858R/T790M); cell-free assay, competition with immobilised ligand: 88%
CDK11A (Homo sapiens, UniProt Q9UQ88); binding, competition with immobilised ligand: 100%
PRKX (Homo sapiens, UniProt P51817); cell-free assay, competition with immobilised ligand: 100%
ROCK2 (Homo sapiens, UniProt O75116); cell-free assay, competition with immobilised ligand: 91%
CDK2 (Homo sapiens, UniProt P24941); cell-free assay, competition with immobilised ligand: 87%
PIK3CA (Homo sapiens, UniProt P42336, E545A); cell-free assay, competition with immobilised ligand: 79%
SIK1 (Homo sapiens, UniProt P57059); competition binding: 100%
PIK3CA (Homo sapiens, UniProt P42336, H1047L); cell-free assay, competition with immobilised ligand: 87%
PIP4K2B (Homo sapiens, UniProt P78356); cell-free assay, competition with immobilised ligand: 78%
MAPK4 (Homo sapiens, UniProt P31152); cell-free assay, competition with immobilised ligand: 91%
EPHB6 (Homo sapiens, UniProt O15197); cell-free assay, competition with immobilised ligand: 100%
FLT1 (Homo sapiens, UniProt P17948); cell-free assay, competition with immobilised ligand: 88%
SYK (Homo sapiens, UniProt P43405); cell-free assay, competition with immobilised ligand: 98%
CAMK4 (Homo sapiens, UniProt Q16566); cell-free assay, competition with immobilised ligand: 95%

Series 2 — observed: enzyme activity; action: inhibitor; concentration: 0.5 µM; baseline: control; measurement: remaining activity
Target: Serine/threonine-protein kinase TAO3 (TAOK3, Homo sapiens, UniProt Q9H2K8)
Target sequence (Q9H2K8 1-898): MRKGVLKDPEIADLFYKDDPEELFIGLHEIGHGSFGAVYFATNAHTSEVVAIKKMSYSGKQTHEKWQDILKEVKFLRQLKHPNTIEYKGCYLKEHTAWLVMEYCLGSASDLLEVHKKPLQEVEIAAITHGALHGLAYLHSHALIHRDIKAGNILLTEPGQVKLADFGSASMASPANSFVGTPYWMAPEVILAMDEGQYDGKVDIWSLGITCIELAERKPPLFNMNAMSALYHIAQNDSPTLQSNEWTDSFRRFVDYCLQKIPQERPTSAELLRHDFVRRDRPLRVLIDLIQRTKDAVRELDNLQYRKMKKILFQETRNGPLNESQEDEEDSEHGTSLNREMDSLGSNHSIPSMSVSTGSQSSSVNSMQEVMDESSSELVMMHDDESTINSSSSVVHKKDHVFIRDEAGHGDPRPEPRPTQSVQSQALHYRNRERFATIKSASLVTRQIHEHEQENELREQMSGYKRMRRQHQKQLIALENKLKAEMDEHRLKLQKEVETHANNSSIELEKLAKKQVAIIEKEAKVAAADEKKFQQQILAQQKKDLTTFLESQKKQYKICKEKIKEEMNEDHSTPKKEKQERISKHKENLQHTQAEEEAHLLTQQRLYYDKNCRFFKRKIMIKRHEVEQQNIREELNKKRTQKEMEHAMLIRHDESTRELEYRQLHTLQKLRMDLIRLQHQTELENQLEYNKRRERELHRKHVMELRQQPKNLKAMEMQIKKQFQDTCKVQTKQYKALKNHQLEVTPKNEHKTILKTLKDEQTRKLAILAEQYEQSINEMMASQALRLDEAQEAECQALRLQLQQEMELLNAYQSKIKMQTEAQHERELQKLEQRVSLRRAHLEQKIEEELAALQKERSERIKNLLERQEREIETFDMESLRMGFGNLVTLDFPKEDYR
CC(C)N(CCC(=O)c1ccc2ccccc2c1)Cc1ccccc1: 87.8%
O=C1c2ccccc2-c2nc3nnnn3nc21: 90.8%
CNc1cc2c(Nc3cccc(Br)c3)ncnc2cn1: 94%
O=C(c1ccccc1)c1ccc(N2CCOCC2)cc1O: 99%
NC(=O)c1ccc(-c2nc(-c3ccc4c(c3)OCCO4)c(-c3ccccn3)[nH]2)cc1: 103%
CCN(CC)CCCCN1c2ccccc2Oc2ccc(Cl)cc21: 110%
Nc1nc(Nc2ccc(S(N)(=O)=O)cc2)nn1C(=S)Nc1c(F)cccc1F: 10%
FC(F)(F)c1ccc(/C=C/c2nc(COc3ccc(CCCCn4ccnn4)cc3)co2)cc1: 93%
O=C1NC(=O)/C(=C/c2ccc3c(c2)OC(F)(F)O3)S1: 84.7%
CC(C)(C)c1nc2c3cc[nH]c(=O)c3c3cc(F)ccc3c2[nH]1: 50.3%
O=c1c(-c2ccc(F)cc2)c(-c2ccncc2)[nH]n1-c1ccc(Cl)cc1: 89.5%
O=C(O)/C=C/c1cc(Br)c(Br)c(Br)c1Br: 85.3%
CCCCc1c(-c2ccc(O)cc2)[nH]c2nccnc12: 82.5%
NC(=O)c1cccc(-c2cc(Nc3ccc(OC(F)(F)F)cc3)ncn2)c1: 107%
CC(C)n1cnc2c(Nc3cccc(Cl)c3)nc(NCCO)nc21: 91.8%
C[C@@H](N)[C@H]1CC[C@H](C(=O)Nc2ccncc2)CC1: 92.1%
c1cc(-c2cnn3cc(-c4ccc(OCCN5CCCCC5)cc4)cnc23)ccn1: 104%
N#C/C(=C(/N)SC1C=CC=CC1)c1cccc(C(O)c2ccncc2)c1 (stereo not drawn): 93.8%

Series 3 — species: mouse; matrix: microsomes or S9; concentration: 2 µM; time: 0.5 h; measurement: remaining compound
O=C1C(c2cnc3ccccc3c2)=C(c2cc(F)cc(F)c2)c2ccc(OCCN3CCS(=O)(=O)CC3)cc21: > 99.9%
COc1ccc2c(c1OC)C(=O)OC2c1c(O)cc(C)n(Cc2ccccn2)c1=O (stereo not drawn): > 100%
CCN1C(=O)CCC2(C(=O)NCCN(C)C3CCCCC3)CCCC=C12 (stereo not drawn): 67.8%
CCOC(=O)Nc1cc(-n2c(=O)nc(N(C)C)n(C)c2=O)c(F)cc1Cl: 96.2%
Cc1ccc2nc(Nc3nc(C)cc(C(F)(F)F)n3)nc(C)c2c1: 2.29%
NS(=O)(=O)c1ccc(Nc2ccc3cc(S(=O)(=O)N4CCCCC4)ccc3n2)cc1: 0.29%
CC(C)(C)c1cc(-c2nc3c4c(ncn3n2)CCC4)n[nH]1: 39.1%
CC1(C)CC(NC(=O)c2cccc(Br)c2)CC(C)(C)N1: 0.12%
O=C(C1CCC1)N(C1CCCCC1)C1CCCCC1: 0.964%
Cc1noc(C)c1CC(=O)NCC12CCC=C1NC(=O)CC2 (stereo not drawn): 90.3%
CCCc1cc(N2CCN(C(=O)c3ccc(C#N)cc3F)CC2)nc2nnc(CC)n12: 82.3%
CC(C)c1ccccc1NC(=O)N1CCC[C@H]2C(=O)NC[C@H]21: 77.7%
Cc1ccc(-n2nncc2-c2ccc(O)cc2O)cc1: 70.7%

Series 4 — cell line: mouse MPNST tumor cells; method: high-content immunofluorescence imaging; measured: nuclear SOX9; concentration: 10 µM; time: 12 h; setting: mean of 2 replicates; baseline: DMSO control; reading: higher = more nuclear SOX9; measurement: nuclear SOX9 intensity
CN(C)CCC(c1ccc(Cl)cc1)c1ccccn1 (stereo not drawn): 111 % of DMSO
CC[C@H]1OC(=O)[C@H](C)[C@@H](O[C@H]2C[C@@](C)(OC)[C@@H](O)[C@H](C)O2)[C@H](C)[C@@H](O[C@@H]2O[C@H](C)C[C@H](N(C)C)[C@H]2O)[C@](C)(O)C[C@@H](C)CN(C)[C@H](C)[C@@H](O)[C@]1(C)O: 132 % of DMSO and 116 % of DMSO and 147 % of DMSO
CC(C)NC[C@@H](O)COc1cccc2ccccc12: 110 % of DMSO
N[C@H](C(=O)O)[C@H](OCc1cccc(NC(=O)c2ccc(C(F)(F)F)cc2)c1)C(=O)O: 95.2 % of DMSO
CN(C)CCN(Cc1cccs1)c1ccccn1: 112 % of DMSO
CNC(=O)c1ccc2c(c1)CCO[C@H]2CCN1CCN(c2ccc(C(N)=O)cc2)CC1: 97 % of DMSO
CC(C)c1cccc2c(-c3ccccc3)cc(-c3ccc(-c4ccc(C(=O)O)cc4)[nH]3)nc12: 103 % of DMSO

Excerpt of the above (series 1):
CAMK4 (Homo sapiens, UniProt Q16566); cell-free assay, competition with immobilised ligand: 95%
ROCK2 (Homo sapiens, UniProt O75116); cell-free assay, competition with immobilised ligand: 91%
PRKX (Homo sapiens, UniProt P51817); cell-free assay, competition with immobilised ligand: 100%
SYK (Homo sapiens, UniProt P43405); cell-free assay, competition with immobilised ligand: 98%
RIPK4 (Homo sapiens, UniProt P57078); cell-free assay, competition with immobilised ligand: 84%
PIK3CA (Homo sapiens, UniProt P42336, H1047L); cell-free assay, competition with immobilised ligand: 87%
